{"data": "Published values gathered from unrelated publications", "TNKS2": "Poly [ADP-ribose] polymerase tankyrase-2 (TNKS2, Homo sapiens, UniProt Q9H2K2)", "Uridine nucleoside ribohydrolase": "Uridine nucleoside ribohydrolase (Trichomonas vaginalis, UniProt A2FTT0)", "HTR1D": "5-hydroxytryptamine receptor 1D (HTR1D, Homo sapiens, UniProt P28221)", "SPHK2": "Sphingosine kinase 2 (SPHK2, Homo sapiens, UniProt Q9NRA0)", "NPY2R": "Neuropeptide Y receptor type 2 (NPY2R, Homo sapiens, UniProt P49146)", "Alpha-amylase": "Alpha-amylase (Bos taurus, UniProt Q3MHH8)", "MMP2": "72 kDa type IV collagenase (MMP2, Homo sapiens, UniProt P08253)", "HDAC6": "Protein deacetylase HDAC6 (HDAC6, Homo sapiens, UniProt Q9UBN7)", "note": "Each line is one published result; not all experiments were run side by side. “And” joins repeats or separate records; there may be more than shown. ± gives the spread as reported.", "UniProt Q9UM07, sequence (whole entry, looked up)": "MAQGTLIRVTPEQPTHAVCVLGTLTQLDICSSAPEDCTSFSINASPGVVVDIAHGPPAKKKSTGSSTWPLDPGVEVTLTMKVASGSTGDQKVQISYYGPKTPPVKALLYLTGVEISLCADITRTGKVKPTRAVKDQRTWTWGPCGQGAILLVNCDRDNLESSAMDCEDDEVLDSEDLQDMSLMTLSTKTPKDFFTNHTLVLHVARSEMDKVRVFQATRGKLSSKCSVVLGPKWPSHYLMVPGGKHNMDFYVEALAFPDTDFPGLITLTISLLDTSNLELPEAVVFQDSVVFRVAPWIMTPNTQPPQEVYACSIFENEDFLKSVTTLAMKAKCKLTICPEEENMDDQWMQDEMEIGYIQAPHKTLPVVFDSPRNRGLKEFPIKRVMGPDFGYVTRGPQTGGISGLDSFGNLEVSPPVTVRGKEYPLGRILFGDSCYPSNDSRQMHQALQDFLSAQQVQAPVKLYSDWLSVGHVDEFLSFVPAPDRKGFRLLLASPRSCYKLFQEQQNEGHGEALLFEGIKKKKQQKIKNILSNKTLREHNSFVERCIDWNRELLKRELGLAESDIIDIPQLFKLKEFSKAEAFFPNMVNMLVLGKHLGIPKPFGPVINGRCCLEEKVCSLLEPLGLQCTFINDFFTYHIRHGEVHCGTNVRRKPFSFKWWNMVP", "UniProt Q9H2K2, sequence (whole entry, looked up)": "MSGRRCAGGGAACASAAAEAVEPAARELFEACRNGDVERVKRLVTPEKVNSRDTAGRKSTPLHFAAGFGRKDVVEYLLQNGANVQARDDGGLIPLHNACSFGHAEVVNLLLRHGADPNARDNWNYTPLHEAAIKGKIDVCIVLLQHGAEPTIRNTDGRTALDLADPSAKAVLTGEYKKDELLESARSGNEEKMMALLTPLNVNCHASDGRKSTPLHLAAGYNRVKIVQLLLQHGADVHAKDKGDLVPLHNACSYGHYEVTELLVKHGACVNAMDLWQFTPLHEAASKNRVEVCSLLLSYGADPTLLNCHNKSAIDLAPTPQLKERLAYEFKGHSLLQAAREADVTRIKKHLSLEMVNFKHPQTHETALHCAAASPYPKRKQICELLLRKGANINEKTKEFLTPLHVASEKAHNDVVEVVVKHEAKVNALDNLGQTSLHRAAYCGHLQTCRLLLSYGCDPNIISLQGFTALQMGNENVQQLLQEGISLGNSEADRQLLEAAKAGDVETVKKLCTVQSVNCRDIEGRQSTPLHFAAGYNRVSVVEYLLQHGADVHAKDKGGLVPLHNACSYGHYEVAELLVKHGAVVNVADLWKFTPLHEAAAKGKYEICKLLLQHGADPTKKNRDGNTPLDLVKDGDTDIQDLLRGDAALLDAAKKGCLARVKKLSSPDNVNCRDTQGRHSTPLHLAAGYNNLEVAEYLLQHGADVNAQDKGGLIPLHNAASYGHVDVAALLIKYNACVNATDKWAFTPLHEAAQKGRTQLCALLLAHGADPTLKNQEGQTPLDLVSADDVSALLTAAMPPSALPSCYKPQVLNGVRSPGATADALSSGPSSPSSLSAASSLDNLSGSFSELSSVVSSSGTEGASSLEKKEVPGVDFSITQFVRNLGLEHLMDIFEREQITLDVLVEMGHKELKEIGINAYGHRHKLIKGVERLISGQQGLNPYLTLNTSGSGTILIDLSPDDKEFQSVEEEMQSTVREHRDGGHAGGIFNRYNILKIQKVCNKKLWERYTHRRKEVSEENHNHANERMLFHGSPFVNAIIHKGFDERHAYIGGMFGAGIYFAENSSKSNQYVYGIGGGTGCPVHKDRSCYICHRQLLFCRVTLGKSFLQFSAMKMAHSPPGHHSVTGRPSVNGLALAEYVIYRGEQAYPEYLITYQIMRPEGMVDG", "UniProt P49146, sequence (whole entry, looked up)": "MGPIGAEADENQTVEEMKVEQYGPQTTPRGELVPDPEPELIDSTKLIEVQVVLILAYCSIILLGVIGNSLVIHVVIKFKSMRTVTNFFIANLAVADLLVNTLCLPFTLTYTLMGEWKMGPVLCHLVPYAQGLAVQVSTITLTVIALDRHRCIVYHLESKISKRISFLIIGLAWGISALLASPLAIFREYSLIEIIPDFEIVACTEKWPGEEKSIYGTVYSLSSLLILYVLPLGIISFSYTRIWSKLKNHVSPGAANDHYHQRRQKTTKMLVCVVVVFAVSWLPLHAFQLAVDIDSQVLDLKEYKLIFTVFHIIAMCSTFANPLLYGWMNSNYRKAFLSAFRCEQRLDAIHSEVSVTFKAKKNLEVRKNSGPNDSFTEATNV", "UniProt Q9UBN7, sequence (whole entry, looked up)": "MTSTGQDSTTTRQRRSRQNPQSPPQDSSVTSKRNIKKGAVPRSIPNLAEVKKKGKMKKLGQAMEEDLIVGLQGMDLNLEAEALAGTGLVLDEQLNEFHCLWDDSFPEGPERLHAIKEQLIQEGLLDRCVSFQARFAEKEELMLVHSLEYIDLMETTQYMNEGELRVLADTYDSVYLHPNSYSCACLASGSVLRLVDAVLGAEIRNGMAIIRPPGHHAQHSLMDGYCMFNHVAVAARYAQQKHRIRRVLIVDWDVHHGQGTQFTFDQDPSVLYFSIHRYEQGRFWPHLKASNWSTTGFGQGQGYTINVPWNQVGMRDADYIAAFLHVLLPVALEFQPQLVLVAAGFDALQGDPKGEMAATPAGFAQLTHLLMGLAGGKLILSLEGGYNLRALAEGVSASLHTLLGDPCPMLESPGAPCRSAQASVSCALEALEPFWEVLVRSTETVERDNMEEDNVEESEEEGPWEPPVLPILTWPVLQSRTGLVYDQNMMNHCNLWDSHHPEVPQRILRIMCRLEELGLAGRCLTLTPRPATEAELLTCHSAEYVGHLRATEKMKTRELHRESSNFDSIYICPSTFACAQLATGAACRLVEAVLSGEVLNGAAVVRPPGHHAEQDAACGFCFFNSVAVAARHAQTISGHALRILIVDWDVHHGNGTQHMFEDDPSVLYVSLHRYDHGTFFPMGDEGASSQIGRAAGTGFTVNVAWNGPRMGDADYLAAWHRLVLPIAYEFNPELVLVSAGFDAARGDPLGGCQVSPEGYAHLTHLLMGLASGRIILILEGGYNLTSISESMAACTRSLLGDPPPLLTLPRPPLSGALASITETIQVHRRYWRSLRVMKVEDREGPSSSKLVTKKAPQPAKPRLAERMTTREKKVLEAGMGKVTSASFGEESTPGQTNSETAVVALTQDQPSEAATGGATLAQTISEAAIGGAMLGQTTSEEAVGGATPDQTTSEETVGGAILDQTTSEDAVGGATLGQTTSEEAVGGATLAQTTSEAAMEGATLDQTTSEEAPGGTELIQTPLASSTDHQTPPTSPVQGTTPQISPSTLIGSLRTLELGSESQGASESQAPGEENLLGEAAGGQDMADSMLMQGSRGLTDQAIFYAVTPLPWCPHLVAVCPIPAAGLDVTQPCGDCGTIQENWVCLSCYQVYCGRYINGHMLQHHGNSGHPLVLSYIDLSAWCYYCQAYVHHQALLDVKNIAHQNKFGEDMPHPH", "UniProt P28221, sequence (whole entry, looked up)": "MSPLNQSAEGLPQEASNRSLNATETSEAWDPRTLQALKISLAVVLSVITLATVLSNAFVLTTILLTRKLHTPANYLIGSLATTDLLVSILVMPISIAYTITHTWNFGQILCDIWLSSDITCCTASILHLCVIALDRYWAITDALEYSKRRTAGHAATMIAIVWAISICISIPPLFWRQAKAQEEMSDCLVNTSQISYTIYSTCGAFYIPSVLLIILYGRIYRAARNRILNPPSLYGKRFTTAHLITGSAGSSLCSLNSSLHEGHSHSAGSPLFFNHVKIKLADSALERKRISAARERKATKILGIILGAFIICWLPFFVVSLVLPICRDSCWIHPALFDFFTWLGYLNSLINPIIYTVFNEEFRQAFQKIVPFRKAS", "UniProt Q93009, sequence (whole entry, looked up)": "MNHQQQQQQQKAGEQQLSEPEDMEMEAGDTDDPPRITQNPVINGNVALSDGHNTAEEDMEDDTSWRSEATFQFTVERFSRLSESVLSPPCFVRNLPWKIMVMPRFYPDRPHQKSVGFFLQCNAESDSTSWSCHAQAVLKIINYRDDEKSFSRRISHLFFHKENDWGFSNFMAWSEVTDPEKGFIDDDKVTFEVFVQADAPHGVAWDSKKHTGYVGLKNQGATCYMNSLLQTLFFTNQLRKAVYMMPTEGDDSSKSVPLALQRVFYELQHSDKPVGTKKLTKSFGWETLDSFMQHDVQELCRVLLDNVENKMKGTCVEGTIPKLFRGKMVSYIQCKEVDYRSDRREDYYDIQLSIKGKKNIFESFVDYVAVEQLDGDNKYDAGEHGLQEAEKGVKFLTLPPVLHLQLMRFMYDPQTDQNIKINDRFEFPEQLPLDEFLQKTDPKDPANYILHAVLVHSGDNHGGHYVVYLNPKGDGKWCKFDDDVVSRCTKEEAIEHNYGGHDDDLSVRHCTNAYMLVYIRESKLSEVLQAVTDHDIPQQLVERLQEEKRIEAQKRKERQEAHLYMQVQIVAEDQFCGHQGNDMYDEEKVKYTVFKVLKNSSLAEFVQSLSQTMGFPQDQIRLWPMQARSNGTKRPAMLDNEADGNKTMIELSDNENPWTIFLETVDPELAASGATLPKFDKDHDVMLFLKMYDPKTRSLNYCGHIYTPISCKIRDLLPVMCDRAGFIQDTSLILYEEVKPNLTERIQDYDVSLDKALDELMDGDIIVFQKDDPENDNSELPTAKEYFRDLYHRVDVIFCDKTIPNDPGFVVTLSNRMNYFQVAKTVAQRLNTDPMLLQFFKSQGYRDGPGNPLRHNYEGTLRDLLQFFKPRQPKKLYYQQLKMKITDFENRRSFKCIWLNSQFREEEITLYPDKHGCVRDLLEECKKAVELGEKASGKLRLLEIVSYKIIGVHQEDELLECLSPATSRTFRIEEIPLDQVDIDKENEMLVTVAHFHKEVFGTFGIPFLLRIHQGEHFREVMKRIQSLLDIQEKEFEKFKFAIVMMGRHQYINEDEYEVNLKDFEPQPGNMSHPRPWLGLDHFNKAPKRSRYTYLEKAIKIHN"}
{"SMILES": "O=C(CC1CC2CCC1C2)NCCNC(=O)Cn1c(=O)[nH]c(=O)c2ccccc21 (stereo not shown)", "target": "TNKS2", "test": "enzyme activity, inhibitor", "conditions": "0.104 µM", "inhibition": "99%"}
{"SMILES": "C=CC(=O)Nc1cc(-c2nn(C3CCN(CCNC(=O)[C@H](C)CCC45CC6CC(CC(C6)C4)C5)CC3)c3ncnc(N)c23)ccc1Oc1ccccc1", "target": "Diacylglycerol kinase eta (DGKH, Homo sapiens, UniProt Q86XP1)", "test": "inhibitor, KiNativ profiling", "test system": "biochemical", "conditions": "2 µM", "inhibition": "7.6%"}
{"SMILES": "Cc1ccnc(OC[C@H]2CN(CCN3CCc4ccccc43)CCO2)c1", "target": "5-hydroxytryptamine receptor 2A (HTR2A, Homo sapiens, UniProt P28223)", "test": "radioligand binding", "conditions": "concentration not given, together with: [3H]ketanserin", "inhibition": "41.9%"}
{"SMILES": "COCC(=O)N1CCc2cc(-c3csc(NC(=O)c4cc(OC)cc(OC)c4)n3)ccc21", "target": "imidazoline I2 receptor, rat central", "test": "radioligand binding", "conditions": "10 µM", "inhibition": "15%"}
{"SMILES": "Cc1cccnc1-c1cccc(C#N)c1", "target": "Uridine nucleoside ribohydrolase", "test": "19F NMR", "conditions": "50 µM", "inhibition": "100%"}
{"SMILES": "O=C(/C=C/c1cccc(OS(=O)(=O)Oc2ccc(Br)cc2)c1)NO", "target": "Histone deacetylase 9 (HDAC9, Homo sapiens, UniProt Q9UKV0)", "test": "enzyme activity, inhibitor, fluorescence", "conditions": "10 µM", "inhibition": "15%"}
{"SMILES": "COc1ccc(CN2CC3CCCCN3C2=O)cc1 (stereo not shown)", "target": "Uridine nucleoside ribohydrolase", "test": "inhibitor, 19F NMR jump dilution", "conditions": "2 µM, 10-fold dilution", "inhibition": "57.2%"}
{"SMILES": "CN1CC[C@@H](COc2cnc(C#N)cc2-c2ccn3nc(NC(=O)C4CC4)cc3c2)C1", "target": "Tau-tubulin kinase 2 (TTBK2, Homo sapiens, UniProt Q6IQ55)", "test": "enzyme activity, inhibitor", "conditions": "1 µM", "inhibition": "-7%"}
{"SMILES": "Cc1cc(C(=O)NCCNC(=O)c2cccc(COc3ccccc3C(N)=O)c2)n[nH]1", "target": "TNKS2", "test": "enzyme activity, inhibitor", "conditions": "5 nM", "inhibition": "82%"}
{"SMILES": "COc1ccc(C(=O)Nc2c(-c3cccs3)nc3ccccn23)cc1", "target": "HTR1D", "test": "ligand displacement, radioligand", "conditions": "10 µM", "inhibition": "< 50%"}
{"SMILES": "CN1CCN(Cc2ccc(-c3ccc(CO[C@H]4CCC[C@@H]4NC(=O)c4cc(-c5cnn(C)c5)cnc4N)cc3)cc2)CC1", "target": "SPHK2", "test": "enzyme activity, inhibitor", "conditions": "0.1 µM", "inhibition": "-3%"}
{"SMILES": "Cl.Cl.N[C@@H](C(=O)N1CCCC1)C1CCN(c2nccc3c(-c4ncc(Cl)cc4Cl)cccc23)CC1", "target": "Protein-arginine deiminase type-4 (PADI4, Homo sapiens, UniProt Q9UM07)", "test": "enzyme activity, inhibitor", "conditions": "4.89 nM, together with: Ca2+ 0.4 mM", "inhibition": "-0.639% and 5.75% and 2.86%"}
{"SMILES": "CC(=O)Nc1ccc(F)cc1-c1ccncc1", "target": "Uridine nucleoside ribohydrolase", "test": "19F NMR", "conditions": "100 µM, together with: 0.01% Triton X-100", "inhibition": "100%"}
{"SMILES": "CN(C)C/C=C/C(=O)Nc1ccc2nc(NCCCCCN(C)C)nc(NCCCCCCN(C)C)c2c1", "target": "Histone-lysine N-methyltransferase PRDM9 (PRDM9, Homo sapiens, UniProt Q9NQV7)", "test": "enzyme activity, inhibitor, radiometric", "conditions": "10 µM", "inhibition": "61%"}
{"SMILES": "C[Si](C)(C)C[C@@H](CN)CC(=O)O", "target": "NPY2R", "test": "ligand displacement, radioligand", "conditions": "75 µM", "inhibition": "-10%"}
{"SMILES": "O=C(CCCc1ccc2c(c1)OCCO2)NCCNC(=O)Cn1c(=O)[nH]c(=O)c2ccccc21", "target": "TNKS2", "test": "enzyme activity, inhibitor", "conditions": "0.104 µM", "inhibition": "75%"}
{"SMILES": "CC1=NN(c2ccccc2F)C(=O)/C1=N\\Nc1ccc(S(N)(=O)=O)cc1", "target": "Alpha-amylase", "test": "enzyme activity, inhibitor, glucose oxidase", "conditions": "10 µg/mL, together with: dextrin", "inhibition": "6.334 ± 0.000334%"}
{"SMILES": "O=C(NCCCCc1ccccc1)n1c(=O)oc2cc(-c3ccc(F)cc3)ccc21", "target": "MMP2", "test": "enzyme activity, inhibitor", "conditions": "10 µM", "inhibition": "7.2%"}
{"SMILES": "CCc1ccc(N2CCC(O)C2)cc1 (stereo not shown)", "target": "Uridine nucleoside ribohydrolase", "test": "19F NMR", "conditions": "100 µM, together with: 0.01% Triton X-100", "inhibition": "34.7%"}
{"SMILES": "C=CC(=O)N1Cc2nc(-c3cc(-c4cc(Cl)cnc4Cl)c(F)cc3F)n(-c3ccncn3)c2C1", "target": "SPHK2", "test": "cell-free assay, inhibitor", "conditions": "1 µM", "inhibition": "-14.4%"}
{"SMILES": "O=C(CNc1nc(NNC(=O)c2ccc(Nc3nc(Nc4ccc(C(=O)NNc5nc(NCC(=O)NO)nc(N6CCCCC6)n5)cc4)nc(Nc4ccc(C(=O)NNc5nc(NCC(=O)NO)nc(N6CCCCC6)n5)cc4)n3)cc2)nc(N2CCCCC2)n1)NO", "target": "MMP2", "test": "enzyme activity, inhibitor, fluorescence", "conditions": "0.01 µg/mL", "inhibition": "86%"}
{"SMILES": "Cc1c(OS(=O)(=O)Oc2ccccc2-c2ccccc2)cccc1C(=O)NO", "target": "HDAC6", "test": "enzyme activity, inhibitor, fluorescence", "conditions": "10 µM", "inhibition": "30%"}
{"SMILES": "NC(=O)[C@@H](O)C[C@H]1CCc2sc3ncnc(O[C@H]4CC[C@H](N5CCOCC5)CC4)c3c21", "target": "Lymphokine-activated killer T-cell-originated protein kinase (PBK, Homo sapiens, UniProt Q96KB5)", "test": "enzyme activity, inhibitor", "conditions": "10 µM", "inhibition": "10%"}
{"SMILES": "O=C1c2sc(-c3ccc(N4CCC(F)C4)nc3F)nc2CCN1c1cccnc1 (stereo not shown)", "target": "GABA-gated chloride channel", "test": "radioligand binding", "conditions": "1 µM, together with: antagonist radioligand", "inhibition": "4%"}
{"SMILES": "Cc1cccc(C)c1CNc1cc(C(=O)N2CCC2)cn2c(C)c(C)nc12", "target": "Na+/K+-ATPase (pig)", "test": "enzyme activity", "test system": "cerebral cortex", "conditions": "10 µM", "inhibition": "4.2%"}
{"SMILES": "CC(=O)Nc1ccccc1-c1ccc(O)cc1", "target": "Uridine nucleoside ribohydrolase", "test": "19F NMR", "conditions": "100 µM, together with: 0.01% Triton X-100", "inhibition": "100%"}
{"SMILES": "CC1Cc2ccccc2N1C(=O)CN1CCN(c2ccccc2)CC1 (stereo not shown)", "target": "HTR1D", "test": "radioligand binding", "conditions": "concentration not given, together with: [3H]5-CT", "inhibition": "8.7%"}
{"SMILES": "N=C(N)NCCCC(NC(=O)C(CC(=O)NO)Cc1ccc2ccccc2c1)C(=O)NC(Cc1c[nH]c2ccccc12)C(=O)NC(CCC(=O)O)C(N)=O (stereo not shown)", "target": "MMP2", "conditions": "1 µM", "inhibition": "22%"}
{"SMILES": "O=C1c2sc(-c3ccc(N4CCC(CO)CC4)nc3F)nc2CCN1c1cccnc1", "target": "Type-1 angiotensin II receptor (AGTR1, Homo sapiens, UniProt P30556)", "test": "ligand displacement, radioligand", "conditions": "1 µM", "inhibition": "-9%"}
{"SMILES": "Cc1cccnc1-c1ccc(C(N)=O)cc1", "target": "Uridine nucleoside ribohydrolase", "test": "19F NMR", "conditions": "50 µM, together with: 0.01% Triton X-100", "inhibition": "100%"}
{"SMILES": "CN(Cc1ccc(/C=C/C(=O)NO)cc1)CC12CC3CC(CC(C3)C1)C2", "target": "somatostatin receptor", "test": "radioligand binding, radioligand displacement", "conditions": "0.05 µM, together with: agonist radioligand 50 nM", "inhibition": "-3%"}
{"SMILES": "CN1CCN(CC(=O)c2ccccc2)C1=O", "target": "Uridine nucleoside ribohydrolase", "test": "19F NMR", "conditions": "100 µM", "inhibition": "89.8%"}
{"SMILES": "O=C(CNc1nc(Cl)nc(NNC(=O)c2ccc(Nc3nc(Nc4ccc(C(=O)NNc5nc(Cl)nc(NCC(=O)NO)n5)cc4)nc(Nc4ccc(C(=O)NNc5nc(Cl)nc(NCC(=O)NO)n5)cc4)n3)cc2)n1)NO", "target": "MMP2", "test": "enzyme activity, inhibitor, fluorescence", "conditions": "1e-05 µg/mL", "inhibition": "15%"}
{"SMILES": "CCn1cc(C(=O)O)c(=O)c2c(N)c(F)c(NC3CCCCC3)cc21", "target": "Cyclin-dependent kinase 6, with cyclin D1 (CDK6, Homo sapiens, UniProt Q00534)", "test": "kinase activity", "conditions": "0.1 µM, together with: ATP at Km", "inhibition": "52%"}
{"SMILES": "CC[C@H](C)[C@@H]1NC(=O)[C@H](Cc2ccccc2C(F)(F)F)NC(=O)CCSCc2cccc(n2)CSCCCNC(=O)[C@H](CCCCCC(=O)O)NC1=O", "target": "HDAC6", "test": "enzyme activity, inhibitor, fluorogenic", "conditions": "30 µM", "inhibition": "15%"}
{"SMILES": "CCc1c(-c2ccc3[nH]ncc3c2)cnc(N)c1-c1ccc(O)cc1", "target": "Ubiquitin carboxyl-terminal hydrolase 7 (USP7, Homo sapiens, UniProt Q93009)", "test": "enzyme activity, inhibitor", "conditions": "50 µM", "inhibition": "105% and 89.1%"}
{"SMILES": "Cn1ccc2cc(-n3c(=O)[nH]c4sc5c(c4c3=O)CCCC5)ccc21", "target": "NPY2R", "test": "cell-free assay", "conditions": "10 µM", "inhibition": "-8%"}
{"SMILES": "COC(=O)c1cccc2c1NC(=O)C2(O)CC(NC(=O)c1cc2[nH]ncc2cn1)C(=O)NCc1ccc2c(c1)OC(F)(F)O2 (stereo not shown)", "target": "D-3-phosphoglycerate dehydrogenase (PHGDH, Homo sapiens, UniProt O43175)", "test": "enzyme activity, inhibitor", "conditions": "25 µM", "inhibition": "53.1%"}
{"SMILES": "Cn1cc(-c2ccc(C(N)=O)cc2)cn1", "target": "Uridine nucleoside ribohydrolase", "test": "19F NMR", "conditions": "100 µM, together with: 0.01% Triton X-100", "inhibition": "100%"}
{"SMILES": "O=[N+]([O-])c1ccc(Cn2cc(Cn3cc(CO)nn3)nn2)cc1", "target": "Pleckstrin homology domain-containing family A member 1, PH domain (Homo sapiens, UniProt Q9HB21)", "test": "PI(3,4)P2 binding to PH domain, SPR", "conditions": "50 µM", "inhibition": "29 ± 5%"}
{"SMILES": "CC1=NN(c2cccc(F)c2)C(=O)/C1=N\\Nc1ccc(S(N)(=O)=O)cc1", "target": "Alpha-amylase", "test": "enzyme activity, inhibitor, glucose oxidase", "conditions": "50 µg/mL, together with: dextrin", "inhibition": "18%"}
{"SMILES": "C/C=C/C(=O)Nc1ccc2nc(NCCCCCN(C)C)nc(NCCCCCCN(C)C)c2c1", "target": "N-lysine methyltransferase SMYD2 (SMYD2, Homo sapiens, UniProt Q9NRG4)", "test": "enzyme activity, inhibitor, radiometric", "conditions": "10 µM", "inhibition": "32%"}
{"SMILES": "Cc1ncc(/C=N/NC(=O)c2cc3c(s2)CCCC3)cn1", "target": "1-deoxy-D-xylulose-5-phosphate synthase (dxs, Deinococcus radiodurans, UniProt Q9RUB5)", "test": "enzyme activity, inhibitor", "conditions": "120 µM", "inhibition": "30.9%"}
{"note": "Some of these lines once more:"}
{"SMILES": "Cc1ncc(/C=N/NC(=O)c2cc3c(s2)CCCC3)cn1", "target": "1-deoxy-D-xylulose-5-phosphate synthase (dxs, Deinococcus radiodurans, UniProt Q9RUB5)", "test": "enzyme activity, inhibitor", "conditions": "120 µM", "inhibition": "30.9%"}
{"SMILES": "CN1CCN(Cc2ccc(-c3ccc(CO[C@H]4CCC[C@@H]4NC(=O)c4cc(-c5cnn(C)c5)cnc4N)cc3)cc2)CC1", "target": "SPHK2", "test": "enzyme activity, inhibitor", "conditions": "0.1 µM", "inhibition": "-3%"}
{"SMILES": "O=C1c2sc(-c3ccc(N4CCC(CO)CC4)nc3F)nc2CCN1c1cccnc1", "target": "Type-1 angiotensin II receptor (AGTR1, Homo sapiens, UniProt P30556)", "test": "ligand displacement, radioligand", "conditions": "1 µM", "inhibition": "-9%"}
